Measured values pooled from the literature.
Numbered parts are unrelated; each lists some results of a single study.
UniProt Q13177, sequence (whole entry, looked up): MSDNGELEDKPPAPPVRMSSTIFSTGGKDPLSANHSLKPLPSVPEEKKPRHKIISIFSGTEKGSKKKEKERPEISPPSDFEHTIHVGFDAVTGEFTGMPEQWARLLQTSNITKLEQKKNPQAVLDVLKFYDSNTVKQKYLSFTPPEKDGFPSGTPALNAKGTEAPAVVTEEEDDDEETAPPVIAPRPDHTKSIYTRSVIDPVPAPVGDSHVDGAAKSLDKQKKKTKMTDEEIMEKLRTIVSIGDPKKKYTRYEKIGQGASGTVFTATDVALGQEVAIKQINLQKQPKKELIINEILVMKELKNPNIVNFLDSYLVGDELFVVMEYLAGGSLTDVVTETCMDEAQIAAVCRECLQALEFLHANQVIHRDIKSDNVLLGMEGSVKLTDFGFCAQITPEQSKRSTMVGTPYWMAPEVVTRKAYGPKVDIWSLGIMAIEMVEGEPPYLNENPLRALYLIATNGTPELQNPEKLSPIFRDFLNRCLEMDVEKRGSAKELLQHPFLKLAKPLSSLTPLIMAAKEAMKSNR
UniProt P29323, sequence (whole entry, looked up): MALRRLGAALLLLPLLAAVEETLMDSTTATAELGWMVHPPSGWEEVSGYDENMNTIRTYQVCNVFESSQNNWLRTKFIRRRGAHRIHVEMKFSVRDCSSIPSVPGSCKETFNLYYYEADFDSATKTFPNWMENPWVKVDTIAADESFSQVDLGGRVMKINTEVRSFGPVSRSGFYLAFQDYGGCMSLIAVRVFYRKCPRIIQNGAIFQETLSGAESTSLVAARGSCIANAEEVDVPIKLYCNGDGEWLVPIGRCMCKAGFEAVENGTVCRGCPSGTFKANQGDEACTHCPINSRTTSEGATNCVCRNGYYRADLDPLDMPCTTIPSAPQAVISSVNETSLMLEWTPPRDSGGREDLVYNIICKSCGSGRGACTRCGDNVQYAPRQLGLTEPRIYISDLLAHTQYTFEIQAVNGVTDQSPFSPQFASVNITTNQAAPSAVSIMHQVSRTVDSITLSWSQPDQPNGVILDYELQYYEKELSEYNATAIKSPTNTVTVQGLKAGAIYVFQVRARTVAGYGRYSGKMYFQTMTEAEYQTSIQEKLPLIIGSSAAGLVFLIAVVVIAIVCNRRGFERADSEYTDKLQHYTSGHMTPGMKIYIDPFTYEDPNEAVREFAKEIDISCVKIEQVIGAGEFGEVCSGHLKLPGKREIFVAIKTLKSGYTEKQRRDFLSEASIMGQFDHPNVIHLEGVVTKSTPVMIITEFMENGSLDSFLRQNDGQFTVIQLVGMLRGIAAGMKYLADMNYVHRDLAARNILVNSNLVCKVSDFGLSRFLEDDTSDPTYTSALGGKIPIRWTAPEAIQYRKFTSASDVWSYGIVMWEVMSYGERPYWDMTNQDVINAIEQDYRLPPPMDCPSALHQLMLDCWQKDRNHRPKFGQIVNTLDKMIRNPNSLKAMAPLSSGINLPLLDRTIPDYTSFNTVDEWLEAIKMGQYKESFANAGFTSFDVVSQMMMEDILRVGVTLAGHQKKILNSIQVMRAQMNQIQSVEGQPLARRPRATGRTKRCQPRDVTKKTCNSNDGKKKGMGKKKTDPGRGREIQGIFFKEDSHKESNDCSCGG
UniProt Q9UQB9, sequence (whole entry, looked up): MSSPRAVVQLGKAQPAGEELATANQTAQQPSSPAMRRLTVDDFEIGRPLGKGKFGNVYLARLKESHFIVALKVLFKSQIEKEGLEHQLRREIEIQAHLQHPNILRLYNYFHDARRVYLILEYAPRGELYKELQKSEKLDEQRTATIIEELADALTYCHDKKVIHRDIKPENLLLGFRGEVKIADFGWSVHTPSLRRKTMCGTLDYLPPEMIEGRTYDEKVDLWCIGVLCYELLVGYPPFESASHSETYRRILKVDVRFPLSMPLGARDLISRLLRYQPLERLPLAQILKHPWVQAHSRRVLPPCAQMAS

Study 1 — read-out: enzyme activity; mode: inhibitor; concentration: 77 µM
Target: DNA polymerase theta, ATPase domain (POLQ, Homo sapiens, UniProt O75417)
UniProt O75417, sequence (whole entry, unmodified, looked up): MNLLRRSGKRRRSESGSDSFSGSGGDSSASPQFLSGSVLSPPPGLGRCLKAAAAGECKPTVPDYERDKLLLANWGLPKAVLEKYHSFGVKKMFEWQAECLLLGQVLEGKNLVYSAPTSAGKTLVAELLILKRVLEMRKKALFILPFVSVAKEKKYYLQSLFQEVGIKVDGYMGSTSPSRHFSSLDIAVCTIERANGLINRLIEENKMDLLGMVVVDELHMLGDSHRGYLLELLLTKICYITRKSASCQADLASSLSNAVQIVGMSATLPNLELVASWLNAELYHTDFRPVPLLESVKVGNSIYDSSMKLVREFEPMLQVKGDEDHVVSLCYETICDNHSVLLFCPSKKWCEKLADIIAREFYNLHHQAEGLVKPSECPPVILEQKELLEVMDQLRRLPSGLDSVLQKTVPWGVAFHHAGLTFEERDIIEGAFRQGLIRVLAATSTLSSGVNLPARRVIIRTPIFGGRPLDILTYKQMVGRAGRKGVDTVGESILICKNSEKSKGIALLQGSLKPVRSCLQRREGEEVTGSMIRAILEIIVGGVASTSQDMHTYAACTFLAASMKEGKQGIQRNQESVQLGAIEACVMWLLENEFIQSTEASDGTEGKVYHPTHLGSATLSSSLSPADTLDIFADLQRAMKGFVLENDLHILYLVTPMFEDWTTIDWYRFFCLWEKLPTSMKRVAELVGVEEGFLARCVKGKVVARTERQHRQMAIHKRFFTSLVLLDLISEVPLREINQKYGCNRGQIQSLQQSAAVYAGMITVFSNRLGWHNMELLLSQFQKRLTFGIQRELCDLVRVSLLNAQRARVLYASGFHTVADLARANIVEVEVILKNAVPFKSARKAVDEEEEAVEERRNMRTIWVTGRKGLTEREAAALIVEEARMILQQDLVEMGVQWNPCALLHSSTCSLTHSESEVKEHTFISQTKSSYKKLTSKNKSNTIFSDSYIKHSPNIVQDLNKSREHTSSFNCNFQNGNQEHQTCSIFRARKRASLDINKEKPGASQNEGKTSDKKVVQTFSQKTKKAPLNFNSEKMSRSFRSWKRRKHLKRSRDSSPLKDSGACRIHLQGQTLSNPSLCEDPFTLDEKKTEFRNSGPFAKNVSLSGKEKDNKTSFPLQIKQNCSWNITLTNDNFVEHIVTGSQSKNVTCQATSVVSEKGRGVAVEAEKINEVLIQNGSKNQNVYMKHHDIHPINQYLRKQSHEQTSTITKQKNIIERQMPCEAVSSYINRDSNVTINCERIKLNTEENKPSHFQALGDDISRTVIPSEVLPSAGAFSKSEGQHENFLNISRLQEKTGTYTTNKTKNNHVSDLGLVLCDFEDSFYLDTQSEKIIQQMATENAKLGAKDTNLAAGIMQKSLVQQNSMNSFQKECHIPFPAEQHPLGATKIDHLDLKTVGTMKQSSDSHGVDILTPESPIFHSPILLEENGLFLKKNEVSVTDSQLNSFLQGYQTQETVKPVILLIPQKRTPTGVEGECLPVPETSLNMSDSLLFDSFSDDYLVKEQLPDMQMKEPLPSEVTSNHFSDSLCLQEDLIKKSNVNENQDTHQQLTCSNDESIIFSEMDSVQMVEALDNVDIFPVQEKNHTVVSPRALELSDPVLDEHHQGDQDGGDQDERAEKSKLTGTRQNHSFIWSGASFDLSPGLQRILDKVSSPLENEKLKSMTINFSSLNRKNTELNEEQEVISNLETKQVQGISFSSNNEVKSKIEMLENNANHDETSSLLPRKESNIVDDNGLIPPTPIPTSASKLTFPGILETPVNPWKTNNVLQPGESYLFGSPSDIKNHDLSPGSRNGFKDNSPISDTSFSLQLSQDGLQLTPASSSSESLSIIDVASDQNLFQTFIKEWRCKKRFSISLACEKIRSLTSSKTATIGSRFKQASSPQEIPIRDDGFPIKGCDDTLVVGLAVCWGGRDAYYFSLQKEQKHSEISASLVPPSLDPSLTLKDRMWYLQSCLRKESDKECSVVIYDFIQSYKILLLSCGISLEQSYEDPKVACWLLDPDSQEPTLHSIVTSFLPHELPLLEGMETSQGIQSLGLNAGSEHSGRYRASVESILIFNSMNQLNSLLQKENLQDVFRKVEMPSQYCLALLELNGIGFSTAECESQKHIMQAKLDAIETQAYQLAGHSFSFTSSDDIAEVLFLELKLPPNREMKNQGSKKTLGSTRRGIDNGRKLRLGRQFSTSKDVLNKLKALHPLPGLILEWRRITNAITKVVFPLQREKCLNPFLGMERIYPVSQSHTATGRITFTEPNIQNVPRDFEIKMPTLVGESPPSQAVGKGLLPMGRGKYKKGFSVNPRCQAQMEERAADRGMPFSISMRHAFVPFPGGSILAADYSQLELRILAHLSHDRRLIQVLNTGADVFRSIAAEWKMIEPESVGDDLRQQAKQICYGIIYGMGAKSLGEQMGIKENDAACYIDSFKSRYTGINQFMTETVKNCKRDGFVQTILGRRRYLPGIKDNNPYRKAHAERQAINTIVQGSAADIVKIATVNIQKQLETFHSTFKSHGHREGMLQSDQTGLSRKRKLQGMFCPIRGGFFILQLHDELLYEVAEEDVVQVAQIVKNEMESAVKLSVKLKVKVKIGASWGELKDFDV
For `CN(C(=O)Cc1ccc(Cl)c(Cl)c1)C(CN1CCCC1)c1cccc(OCC(=O)O)c1` (centres unmarked), the remaining activity was 100%.
The remaining activity of `NCC(O)c1cc(O)c(O)cc1F` (centres unmarked) is reported as 99.8%.
`CN1[C@@H]2CC(O)C[C@H]1[C@@H]1O[C@@H]12` (some centres unmarked) has a remaining activity of 94.5%.
With `CC(=O)O[C@H]1C[C@H](O[C@H]2[C@@H](O)C[C@H](O[C@H]3[C@@H](O)C[C@H](O[C@H]4CC[C@@]5(C)[C@H](CC[C@@H]6[C@@H]5C[C@@H](O)[C@]5(C)[C@@H](C7=CC(=O)OC7)CC[C@]65O)C4)O[C@@H]3C)O[C@@H]2C)O[C@H](C)[C@H]1O[C@@H]1O[C@H](CO)[C@@H](O)[C@H](O)[C@H]1O` the remaining activity was 111%.
`CN1[C@@H]2CC[C@H]1C[C@@H](OC(c1ccccc1)c1ccccc1N)C2` (some centres unmarked) has a remaining activity of 98.8%.
`CC(C)[C@@]1(NC(=O)[C@@H]2C[C@@H]3c4cccc5[nH]cc(c45)C[C@H]3N(C)C2)O[C@@]2(O)[C@@H]3CCCN3C(=O)[C@H](Cc3ccccc3)N2C1=O` gave a remaining activity of 101%.
`CC1=NN=C(c2ccc(N)cc2)c2cc3c(cc2C1)OCO3` gave a remaining activity of 95.2%.
`C=C1[C@H]2C[C@@]3([C@@H]1O)[C@@H](C[C@@H]2O)[C@]12[C@@H]4C[C@H]3[C@H]1N(CC)C[C@]4(C)CC[C@@H]2O` has a remaining activity of 101%.
`C[N+]1([O-])[C@@H]2CC(OC(=O)[C@H](CO)c3ccccc3)C[C@H]1[C@@H]1O[C@@H]12` (some centres unmarked) gave a remaining activity of 91.7%.
`C[C@H]1O[C@@H](O[C@H]2CC[C@]3(C=O)[C@H]4CC[C@]5(C)[C@@H](C6=CC(=O)OC6)CC[C@]5(O)[C@@H]4CC[C@]3(O)C2)C[C@H](O)[C@@H]1O` has a remaining activity of 96.8%.
`c1ccc(CCCN2CCN(CCOC(c3ccccc3)c3ccccc3)CC2)cc1` gave a remaining activity of 99.2%.
With `C(#CCN1CCCC1)CN1CCCC1` the remaining activity was 104%.
With `C[C@@H]1NCCc2cc(O)c(O)cc21` the remaining activity was 98.9%.
For `COC(=O)N1CCN(C(=O)Cc2ccc(Cl)c(Cl)c2)C(CN2CCCC2)C1` (centres unmarked), the remaining activity was 112%.
`O=C1C=CC[C@@H]2[C@H]3CCCN4CCC[C@@H](CN12)[C@@H]34` gave a remaining activity of 105%.
`C=C[C@H]1CN2CC[C@H]1C[C@@H]2[C@@H](O)c1ccnc2ccccc12` gave a remaining activity of 106%.
With `C#C[C@]1(O)CC[C@H]2[C@@H]3CCC4=Cc5nc6nc7ccccc7n6cc5C[C@]4(C)[C@H]3CC[C@@]21C` the remaining activity was 102%.
`CN1CCC2=C[C@H](O)[C@H]3OC(=O)c4cc5c(cc4[C@H]3[C@@H]21)OCO5` has a remaining activity of 101%.
The remaining activity of `CCNC1(c2cccs2)CCCCC1=O` (centres unmarked) is reported as 92.8%.
`COc1cc2c(cc1O)C[C@H]1c3c(cc(O)c(OC)c3-2)CCN1C` gave a remaining activity of 99%.
The remaining activity of `CC1=NCCc2c1[nH]c1cc(O)ccc21` is reported as 101%.
`c1cncc([C@@H]2CCCCN2)c1` gave a remaining activity of 100%.

Study 2 — read-out: enzyme activity; mode: inhibitor; concentration: 0.5 µM; reference: control
SMILES: CCn1cnc2c(Nc3cccc(Cl)c3)nc(N[C@H]3CCCC[C@H]3N)nc21
The remaining activity was 97.5% (FGFR4 (Homo sapiens, UniProt P22455)).
For GRK2 (Homo sapiens, UniProt P25098): remaining activity read 96.5%.
It gave 94.9% for remaining activity (SRPK3 (Homo sapiens, UniProt Q9UPE1)).
The remaining activity was 93.9% (PAK2 (Homo sapiens, UniProt Q13177)).
PIM2 (Homo sapiens, UniProt Q9P1W9) — remaining activity: 111%.
For SGK1 (Homo sapiens, UniProt O00141): remaining activity read 120%.
PRKCG (Homo sapiens, UniProt P05129) — remaining activity: 95%.
The remaining activity was 52.4% (NUAK1 (Homo sapiens, UniProt O60285)).
EPHB2 (Homo sapiens, UniProt P29323) — remaining activity: 82.9%.
CSK (Homo sapiens, UniProt P41240) — remaining activity: 85.5%.
For MYLK (Homo sapiens, UniProt Q15746): remaining activity read 91%.
GRK6 (Homo sapiens, UniProt P43250) — remaining activity: 99.6%.
It gave 97.3% for remaining activity (RPS6KB1 (Homo sapiens, UniProt P23443)).
For Aurora kinase C (AURKC, Homo sapiens, UniProt Q9UQB9): remaining activity read 94.5%.
The remaining activity was 12.7% (FLT3 (Homo sapiens, UniProt P36888)).
It gave 103% for remaining activity (GSK3A (Homo sapiens, UniProt P49840)).
CSF1R (Homo sapiens, UniProt P07333) — remaining activity: 94.2%.
It gave 87.6% for remaining activity (EPHA7 (Homo sapiens, UniProt Q15375)).
PRKCE (Homo sapiens, UniProt Q02156) — remaining activity: 90.6%.

Study 3 — read-out: enzyme activity; mode: inhibitor; concentration: 10 µM
Target: Calcium/calmodulin-dependent protein kinase type II subunit alpha (CAMK2A, Homo sapiens, UniProt Q9UQM7)
UniProt Q9UQM7, sequence (whole entry, looked up): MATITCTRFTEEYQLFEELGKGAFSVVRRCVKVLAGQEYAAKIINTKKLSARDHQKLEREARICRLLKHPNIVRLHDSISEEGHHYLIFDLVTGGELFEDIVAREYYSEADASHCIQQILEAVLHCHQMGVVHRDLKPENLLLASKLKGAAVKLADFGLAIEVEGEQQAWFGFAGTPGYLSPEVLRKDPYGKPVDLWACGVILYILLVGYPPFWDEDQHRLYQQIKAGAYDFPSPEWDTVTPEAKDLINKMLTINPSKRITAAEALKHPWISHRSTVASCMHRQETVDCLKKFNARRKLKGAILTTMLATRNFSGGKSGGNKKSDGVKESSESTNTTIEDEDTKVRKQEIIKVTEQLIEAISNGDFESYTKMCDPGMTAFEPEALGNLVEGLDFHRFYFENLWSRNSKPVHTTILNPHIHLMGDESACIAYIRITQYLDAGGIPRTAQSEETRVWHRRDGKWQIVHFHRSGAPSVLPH
`O=c1ccc2cc3ccoc3c(O)c2o1` gave an inhibition of 13%.
For `CC1=C2[C@H]3OC(=O)[C@@H](C)[C@@H]3CC[C@@]2(C)C=CC1=O`, the inhibition was -11%.
For `CO[C@H]1C[C@H](O[C@H]2CC[C@@]3(C)C(=CC[C@]4(O)[C@@H]3C[C@@H](OC(=O)c3ccc(O)cc3)[C@@]3(C)[C@]4(O)CC[C@@]3(O)C(C)=O)C2)O[C@H](C)[C@H]1O[C@H]1C[C@H](OC)[C@H](O[C@H]2C[C@@H](OC)[C@H](O)[C@@H](C)O2)[C@@H](C)O1`, the inhibition was -40%.
`CC(C)=CC1C(C(=O)OCc2cccc(Oc3ccccc3)c2)C1(C)C` (centres unmarked) has an inhibition of -15%.

Study 4 — cell line: mouse MPNST tumor cells; method: high-content immunofluorescence imaging; measured: nuclear SOX9; concentration: 10 µM; time: 12 h; setting: mean of 2 replicates; reference: DMSO control; reading: higher = more nuclear SOX9
`CN1CC[C@]2(c3cccc(O)c3)Cc3nc4ccccc4cc3C[C@H]2C1` — result for “nuclear SOX9 intensity”: 109 % of DMSO.
Under “nuclear SOX9 intensity”, `O=C(Oc1ccc([N+](=O)[O-])cc1)N1CCC(C(O)(c2ccc3c(c2)OCO3)c2ccc3c(c2)OCO3)CC1` is recorded as 109 % of DMSO.
For `Cc1cc2c(C(C)C)c(O)c(O)c(C=O)c2c(O)c1-c1c(C)cc2c(C(C)C)c(O)c(O)c(C=O)c2c1O`, “nuclear SOX9 intensity” read 102 % of DMSO.
`C[N+]1(C)CCCC(OC(=O)C(O)(c2ccccc2)c2ccccc2)C1` (centres unmarked) — result for “nuclear SOX9 intensity”: 89.5 % of DMSO.
`O=C(O)C(=O)c1cn(Cc2ccccc2)c2ccc(-c3ccc(OC(F)(F)F)cc3)cc12` — result for “nuclear SOX9 intensity”: 89.5 % of DMSO.
